Published values pooled from the literature.
Compare with care: the assays were run in different laboratories. ± marks the error that the study gave.
BCHE: Cholinesterase (BCHE, Homo sapiens, UniProt P06276)
Aminopeptidase N: Aminopeptidase N (Neisseria meningitidis, UniProt Q9JYV4)

With `CC(C)(C)n1ccc(C(=O)N2CCN(c3nc4ccccc4s3)CC2)c1` the kmax was 0.0013 s⁻¹ (hh, C-terminal autoprocessing domain (Drosophila melanogaster, UniProt Q02936); inhibitor; 0.8 µM).
The activation V1/2 of `CCN(Cc1ccccc1)C(=O)CCc1nc(CN2CCN(C(=O)Cc3ccc(OC)c(OC)c3)CC2)no1` is reported as -28.3 ± 0.82 mV (KCNQ4 (Homo sapiens, UniProt P56696); potassium current, whole-cell patch clamp; CHO, stable; 100 nM).
`O=C(O)/C=C/c1ccc(O)cc1` gave an inhibition of 55.9% (BCHE; enzyme activity, inhibitor, Ellman; 125 µg/mL).
Under sodium current, `C=CC1CN2CCC1CC2C(O)c1c(-c2ccc(N=Nc3ccccc3)cc2)cnc2ccc(OC)cc12` (centres unmarked) is recorded as “decreased” (SCN5A (Homo sapiens, UniProt Q14524); blocker, whole-cell patch clamp; 10 µM, cis isomer).
For `CCCCCCCCCCCCCCCCSCc1cc2cc(c1)CSC[C@H](N)C(=O)NCCCCCC(=O)N[C@@H](Cc1ccccc1)C(=O)N[C@@H](CC(C)C)C(=O)N[C@@H](Cc1ccccc1)C(=O)N[C@@H](CCCNC(=N)N)C(=O)N1[C@@H](C[C@@H]3CCCC[C@@H]31)C(=O)N[C@@H](CCCNC(=N)N)C(=O)N[C@@H](CC(N)=O)C(=O)NCCCCCC(=O)N[C@H](C(N)=O)CSC2`, the Emax was 96.4 ± 7.7% (NMUR1 (Homo sapiens, UniProt Q9HB89); calcium signalling, agonist; HEK293 expressing receptor; 10 µM; relative to: human NmU).
`CC(C)C[C@@H]1NC(=O)[C@H](CCCNC(=N)N)NC(=O)[C@H](CCCCN)NC(=O)[C@H](CC(=O)O)NC(=O)[C@H](CCCCN)NC(=O)[C@@H](CO)NC1=O`: enzyme activity “decreased” (Disintegrin and metalloproteinase domain-containing protein 8 (Homo sapiens, UniProt P78325); PANC-1 ADAM8-expressing; 1 µM, 24 h; relative to: vehicle).
The kon of `CC(C)C[C@H](NC(=O)[C@H](CCC(=O)O)NC(=O)[C@H](C)NC(=O)[C@H](CCC(=O)O)NC(=O)[C@H](CCC(=O)O)NC(=O)[C@H](Cc1c[nH]cn1)NC(=O)[C@H](CCCNC(=N)N)NC(=O)[C@H](CCC(=O)O)NC(=O)[C@H](CC(N)=O)NC(=O)[C@H](CCCCN)NC(=O)[C@H](CC(C)C)NC(=O)[C@H](CCCNC(=N)N)NC(=O)[C@H](CCC(N)=O)NC(=O)[C@H](CC(C)C)NC(=O)[C@H](CCC(=O)O)NC(=O)[C@H](C)NC(=O)[C@H](C)NC(=O)[C@H](C)NC(=O)[C@@H](NC(=O)[C@H](CC(C)C)NC(=O)[C@H](CCCCN)NC(=O)[C@H](CCC(=O)O)NC(=O)[C@@H](NC(=O)[C@H](CO)NC(=O)CN)C(C)C)[C@@H](C)O)C(=O)N[C@@H](CCC(=O)O)C(=O)N[C@@H](CCCNC(=N)N)C(=O)N[C@@H](CC(C)C)C(=O)N[C@@H](CCCCN)C(=O)N[C@@H](CO)C(=O)N[C@@H](CCC(=O)O)C(=O)N[C@@H](Cc1ccc(O)cc1)C(=O)O` is reported as 126000 M⁻¹ s⁻¹ (Plasminogen (PLG, Homo sapiens, UniProt P00747, C188G/E240D/L256Y); binding, SPR; pH 7.4).
`CCOC(=O)/C(C#N)=C/c1cccc(C(N)=O)c1` — result for “binding free energy”: -6.81 kcal/mol (Genome polyprotein, 3C protease (Human enterovirus D68, UniProt Q68T42, C1641Y/I1565V/I1594T/R1603K/Y1579H); ITC; enterovirus D68; 25 °C, together with: DTT 10 mM).
`CC[C@H](C)[C@H](NC(=O)[C@H](CC(N)=O)NC(=O)[C@H](CCC(=O)O)NC(=O)[C@H](CCC(=O)O)NC(=O)[C@H](CCC(=O)O)NC(=O)[C@H](CC(N)=O)NC(=O)[C@H](CCCNC(=N)N)NC(=O)[C@@H]1CCCN1C(=O)[C@H](CCCCN)NC(=O)[C@@H](NC(=O)[C@@H](NC(=O)[C@H](C)NC(=O)[C@H](CC(=O)O)NC(=O)[C@H](CCSC)NC(=O)[C@@H]1CCCN1C(=O)[C@H](CCC(=O)O)NC(=O)[C@H](C)NC(=O)[C@H](Cc1ccc(OP(=O)(O)O)cc1)NC(=O)[C@H](CC(=O)O)NC(=O)[C@H](CO)NC(=O)[C@@H]1CCCN1C(=O)[C@H](CC(=O)O)NC(C)=O)C(C)C)C(C)C)C(=O)N[C@@H](Cc1ccc(OP(=O)(O)O)cc1)C(=O)N[C@@H](CO)C(=O)N[C@H](C(=O)N1CCC[C@H]1C(=O)N[C@@H](Cc1c[nH]cn1)C(=O)N[C@@H](CC(=O)O)C(=O)N[C@@H](CO)C(N)=O)C(C)C` gave a binding enthalpy of -31.1 ± 4.78 kcal/mol (Ras GTPase-activating protein 1, SH2-SH3-SH2 region (RASA1, Homo sapiens, UniProt P20936, C236S/C261S/C372S/C402S); isothermal titration calorimetry; concentration not given, pH 8.0, together with: doubly phosphorylated p190RhoGAP peptide).
`CC(C)P(=[Se])(NP(=[Se])(C(C)C)C(C)C)C(C)C`: “maximum emission wavelength” 353 nm (Alpha-amylase (Bacillus subtilis, UniProt P00691); tryptophan fluorescence, fluorescence quenching; 0.20 mg/mL, 298 K).
`Cc1cc(O)cc(C)c1CC(N)C(=O)NC1CCNc2c1cc(Cc1ccccc1)cc2C(F)(F)F` (centres unmarked) gave a maximal stimulation of 42% (Oprd1 (Rattus norvegicus, UniProt P33533); GTPγS binding, agonist; C6 cells expressing DOR; relative to: DPDPE at 10 µM).
For `NCCCC[C@H](N)C(=O)Nc1ccc2c(CC(N)=O)cc(=O)oc2c1`, “relative hydrolysis rate” read under 20% (Aminopeptidase N; enzyme activity, substrate; 3 µM, pH 7.5, 37 °C; relative to: L-hArg-ACC).
`Nc1nc2c([C@@H]3O[C@@H]4COP(=O)(O)O[C@H]5[C@@H](O)[C@H](c6snc7c(=O)[nH]c(N)nc67)O[C@@H]5COP(=O)(O)O[C@H]4[C@H]3O)snc2c(=O)[nH]1` — result for “time to complete cleavage”: at most 20 min (rocR (Pseudomonas aeruginosa, UniProt Q9HX69); substrate, HPLC; 10 µM, together with: 100 nM enzyme).
`CCCCCCCCNP(=O)(Oc1ccccc1)O[C@@H]1O[C@H](CO)[C@@H](O)[C@H](O)[C@H]1F` (some centres unmarked): “inactivation rate constant” 15 min⁻¹ (GBA1 (Homo sapiens, UniProt P04062); enzyme activity, irreversible inhibitor; pH 5.5, 37 °C, together with: 2,4-dinitrophenyl beta-D-glucopyranoside).
For `OC[C@@H]1[C@@H](O)[C@H](O)[C@@H](O)[C@@H]2N[C@H]12`, “time to full inhibition” read at most 30 s (GBA1 (Homo sapiens, UniProt P04062, R534H); enzyme activity; concentration not given, higher concentrations, together with: 2,4-DNP-β-Glc).
With `O=C(O)CCCC(=O)O` the inhibition was 69.1% (BCHE; enzyme activity, inhibitor, Ellman; 500 µg/mL).
`Cc1ncsc1-c1ccc([C@H](C)NC(=O)[C@@H]2C[C@@H](O)CN2C(=O)[C@@H](NC(=O)CN2CCC(CN3CCN(CCC(=O)N4CCN(c5ncc(-c6cc(NC(=O)c7ccc(F)cc7C(F)(F)F)c(N7C[C@@H](C)N(C)[C@@H](C)C7)cc6F)cn5)CC4)CC3)CC2)C(C)(C)C)cc1` gave a degradation of 64 to 67% (WD repeat protein WDS (Spodoptera frugiperda, UniProt A0A2H1VC02); degrader, targeted LC-MS; Sf9; 10 µM, 24 h).
Under “uptake inhibition potency fold increase”, `OC(COCc1ccccc1Cl)CN1CC=C(c2c[nH]c3ccccc23)CC1` (racemic) is recorded as 3 fold (SLC6A4 (Homo sapiens, UniProt P31645); HEK293 expressing SLC6A4; concentration not given, together with: [3H]serotonin; relative to: MI-17).
The inhibition of `CC(=O)NC(Cc1ccc(Br)c(Cl)c1)C(=O)N[C@@H](C)C(=O)N1CCC[C@H]1C(=O)N1CCC[C@H]1C(=O)N[C@@H](CCC(=O)O)C(=O)N[C@@H](Cc1c[nH]cn1)C(=O)N[C@@H](CO)C(=O)N[C@H](C(=O)N[C@@H](C)C(N)=O)[C@@H](C)OP(=O)(O)O` (some centres unmarked) is reported as 0.25 ± 0.01% (TYRO3 (Homo sapiens, UniProt Q06418); 10 µM).
`COc1cc(COc2ccc3c(c2)CN(C(=O)[C@H](CCC(=O)O)NC(=O)[C@H](CC(=O)O)NC(=O)[C@H](CC(=O)O)NC(=O)[C@H](CCC(=O)O)NC(=O)[C@@H](CCCNC(=N)N)NC(=O)[C@@H](CCCNC(=N)N)NC(=O)[C@@H](CCCNC(=N)N)NC(=O)[C@H](C)N(C)C(=O)[C@H](Cc2ccccc2)NC(=O)[C@@H](NC(=O)[C@H](Cc2ccccc2)NC(=O)[C@H](C)NC(=O)[C@H](CCCNC(=N)N)N(C)C(=O)[C@@H]2CCCN2C(=O)[C@H](CCCNC(=N)N)NC(=O)CNC(=O)c2ccc4c(c2)C2(OC4=O)c4ccc(O)cc4Oc4cc(O)ccc42)[C@@H](C)OCc2cc(OC)c(OC)cc2[N+](=O)[O-])[C@H](C(=O)N[C@@H](CCC(=O)O)C(=O)N[C@@H](CCC(=O)O)C(=O)N[C@H](C(N)=O)C(C)C)C3)c([N+](=O)[O-])cc1OC` gave a phosphorylation of 87.1 ± 1.8% (AKT1 (Homo sapiens, UniProt P31749); reporter phosphorylation, substrate; concentration not given, 60 min, after photoactivation).
For `CC(C)C[C@H](N)C(=O)Nc1ccc2c(CC(N)=O)cc(=O)oc2c1`, the Km was 85.4 ± 0.5 µM (Aminopeptidase N; enzyme activity, substrate; pH 7.5, 37 °C).
With `CC(C)(C)OC(=O)N1CCC(C(=O)Oc2ccc(C(F)(F)F)cc2)CC1` the inhibitory concentration was under 1 µM (clpP (Staphylococcus aureus, UniProt Q2G036); enzyme activity, inhibitor).
The selectivity ratio of `CC(C)CCCN(Cc1ccc(F)cc1)c1nc(C#N)nc(N2CCOCC2)n1` is reported as 1.5 (CPL (Toxoplasma gondii, UniProt Q6DMN0); enzyme activity, inhibitor; relative to: human over Toxoplasma IC50).

Excerpt of the above:
`COc1cc(COc2ccc3c(c2)CN(C(=O)[C@H](CCC(=O)O)NC(=O)[C@H](CC(=O)O)NC(=O)[C@H](CC(=O)O)NC(=O)[C@H](CCC(=O)O)NC(=O)[C@@H](CCCNC(=N)N)NC(=O)[C@@H](CCCNC(=N)N)NC(=O)[C@@H](CCCNC(=N)N)NC(=O)[C@H](C)N(C)C(=O)[C@H](Cc2ccccc2)NC(=O)[C@@H](NC(=O)[C@H](Cc2ccccc2)NC(=O)[C@H](C)NC(=O)[C@H](CCCNC(=N)N)N(C)C(=O)[C@@H]2CCCN2C(=O)[C@H](CCCNC(=N)N)NC(=O)CNC(=O)c2ccc4c(c2)C2(OC4=O)c4ccc(O)cc4Oc4cc(O)ccc42)[C@@H](C)OCc2cc(OC)c(OC)cc2[N+](=O)[O-])[C@H](C(=O)N[C@@H](CCC(=O)O)C(=O)N[C@@H](CCC(=O)O)C(=O)N[C@H](C(N)=O)C(C)C)C3)c([N+](=O)[O-])cc1OC` gave a phosphorylation of 87.1 ± 1.8% (AKT1 (Homo sapiens, UniProt P31749); reporter phosphorylation, substrate; concentration not given, 60 min, after photoactivation).
Under “uptake inhibition potency fold increase”, `OC(COCc1ccccc1Cl)CN1CC=C(c2c[nH]c3ccccc23)CC1` (racemic) is recorded as 3 fold (SLC6A4 (Homo sapiens, UniProt P31645); HEK293 expressing SLC6A4; concentration not given, together with: [3H]serotonin; relative to: MI-17).
With `CC(C)(C)n1ccc(C(=O)N2CCN(c3nc4ccccc4s3)CC2)c1` the kmax was 0.0013 s⁻¹ (hh, C-terminal autoprocessing domain (Drosophila melanogaster, UniProt Q02936); inhibitor; 0.8 µM).
